Experimental data collected from several papers.
“And” joins repeats or separate records; there may be more than shown. ± marks the error that the study gave.
Chain of UniProt P27338 (whole entry, looked up): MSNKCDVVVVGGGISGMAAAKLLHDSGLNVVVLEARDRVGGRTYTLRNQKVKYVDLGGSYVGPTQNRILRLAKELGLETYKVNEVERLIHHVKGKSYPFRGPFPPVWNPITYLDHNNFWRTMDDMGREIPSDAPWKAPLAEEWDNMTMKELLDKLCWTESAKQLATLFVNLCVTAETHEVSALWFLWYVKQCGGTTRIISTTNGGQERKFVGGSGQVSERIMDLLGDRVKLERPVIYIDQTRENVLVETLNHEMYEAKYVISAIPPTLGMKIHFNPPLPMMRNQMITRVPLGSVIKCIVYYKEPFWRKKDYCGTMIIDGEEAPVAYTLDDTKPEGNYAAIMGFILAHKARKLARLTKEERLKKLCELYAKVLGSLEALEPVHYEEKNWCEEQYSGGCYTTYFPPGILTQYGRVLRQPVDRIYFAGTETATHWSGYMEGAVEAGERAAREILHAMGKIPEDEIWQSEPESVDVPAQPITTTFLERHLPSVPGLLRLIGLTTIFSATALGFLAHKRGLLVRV

SMILES | tested on | test | test system | setting | endpoint | result
Nc1nc(Nc2ccc(Cl)c(Cl)c2)nn1S(=O)(=O)c1ccc2ccccc2c1 | Vero 76 |  |  |  | CC50 | 4.1 µM and 5.9 µM
NC(=O)c1cc(-c2cncnc2)ccc1OCCc1cccc(F)c1 | HepG2 |  | galactose medium | 3 (unit not given) | CC50 | > 100 µM
CC(C)(C)C(=O)OCOP(=O)(OCOC(=O)C(C)(C)C)C1CCCN(O)C1=O (stereo not drawn) | MDA-MB-231 |  |  |  | GI50 | 0.397 µM
C[C@H](NC(=O)Cc1cc(F)cc(F)c1)C(=O)N[C@@H]1C(=O)N(C)c2ccccc2-c2ccccc21 | Raji DC-SIGN | cell viability, CellTiter-Glo |  | 48 h, uninfected | CC50 | 110 µM
O=C1NC2(CC2)COc2ncc(F)cc2[C@H]2COCCN2c2ccn3ncc1c3n2 |  |  | Sprague-Dawley rat, male, serum | oral, 20 mg/kg/day, 4 weeks daily, end of treatment | pancreatic amylase activity | 1840 ± 514 U/L
NC(=O)c1cc(-c2ccsc2)ccc1OCCc1cc(F)cc(F)c1 | HepG2 |  | galactose medium | 3 (unit not given) | CC50 | > 100 µM
C[C@H](NC(=O)[C@@H](O)c1cc(F)cc(F)c1)C(=O)N[C@@H]1C(=O)N(C)c2ccccc2-c2ccccc21 | MEF | cell viability, CellTiter-Glo |  | 48 h, uninfected | CC50 | 70.2 µM
NC(=O)c1cc(-c2ccco2)ccc1OCCc1cccc(F)c1 | HepG2 |  | galactose medium | 3 (unit not given) | CC50 | 56 ± 1 µM
CC[C@H](C)[C@H]1NC(=O)[C@@H](C)N(C)C(=O)[C@H](C)N(C)C(=O)[C@H](CC(C)C)NC(=O)[C@H](Cc2ccccc2)N(C)C(=O)[C@H](C(C)C)NC(=O)[C@@H](C(C)C)NC1=O | HCT-116 | cell viability, CellTiter-Glo ATP |  | 72 h | CC50 | > 10 µM
Cc1ccc(OCCN(C)C)cc1C(=O)N[C@H](C)c1cc(-c2ccc(C(F)(F)F)s2)nc2ccccc12 | Vero E6 |  |  | 1.953 µM | viability | 112% and 107%
CS(C)(=O)=Nc1ccc(-c2ccc(-c3nc4cc(O[C@@H]5CO[C@H]6[C@@H]5OC[C@H]6O)[nH]c4cc3F)cc2)cc1 | MAOB (Homo sapiens, UniProt P27338) | enzyme activity, inhibitor |  | 10 µM | inhibition | -3%
CC[C@H](C)[C@H]1NC(=O)[C@@H](C)N(C)C(=O)[C@H](C)N(C)C(=O)[C@H](CC(C)C)NC(=O)[C@H](Cc2ccccc2)N(C)C(=O)[C@H](C)N(C)C(=O)[C@@H]([C@@H](C)CC)NC1=O | HCT-116 | CellTiter-Glo ATP |  | 72 h, 0.1% DMSO | CC50 | 0.14 ± 0.013 µM
Cc1ccc(N2CC3CCC(C2)N3C)cc1C(=O)N[C@H](C)c1cc(-c2cnn(C)c2)nc2ccccc12 | African green monkey cells |  |  | 7.812 µM | viability | 100%
CC[C@H](C)[C@H]1NC(=O)[C@@H](Cc2ccccc2)N(C)C(=O)[C@H](C)N(C)C(=O)[C@H](CC(C)C)NC(=O)[C@H](CC(C)C)N(C)C(=O)[C@H](C)N(C)C(=O)[C@@H]([C@@H](C)CC)NC1=O | HCT-116 | CellTiter-Glo ATP |  | 72 h, 0.1% DMSO | CC50 | 0.02 ± 0.001 µM
O=C(N[C@@H](Cc1ccccc1)C(=O)N[C@@H](C[C@@H]1CCNC1=O)C(O)S(=O)(=O)O)OCc1ccccc1 (stereo partly drawn) | HCT-8 |  |  | 5 (unit not given) | CC50 | > 250 µM
Cc1ccc(-c2cc(-c3ccccc3)nn2-c2ccc([N+](=O)[O-])cc2[N+](=O)[O-])cc1 | Neuro2a | MTT |  | 48 h | CC50 | ~10 µM
O=C(CCOCC(COCCC(=O)NC(Cc1c(-c2cc(C(=O)O)cc(C(=O)O)c2)[nH]c2c(-c3cc(C(=O)O)cc(C(=O)O)c3)cccc12)C(=O)O)(COCCC(=O)NC(Cc1c(-c2cc(C(=O)O)cc(C(=O)O)c2)[nH]c2c(-c3cc(C(=O)O)cc(C(=O)O)c3)cccc12)C(=O)O)COCCC(=O)NC(Cc1c(-c2cc(C(=O)O)cc(C(=O)O)c2)[nH]c2c(-c3cc(C(=O)O)cc(C(=O)O)c3)cccc12)C(=O)O)NC(Cc1c(-c2cc(C(=O)O)cc(C(=O)O)c2)[nH]c2c(-c3cc(C(=O)O)cc(C(=O)O)c3)cccc12)C(=O)O (stereo not drawn) | HEp-2 | cytotoxicity |  | 24 (unit not given) | CC50 | > 100 µM
O=[N+]([O-])c1ccc(-n2nc(-c3ccccc3)cc2-c2ccc(F)cc2)c([N+](=O)[O-])c1 | Neuro2a | MTT |  | 48 h | CC50 | ~50 µM
[Cl-].[Cl-].[Ru+2].c1ccc(-c2ccccn2)nc1.c1ccc(-c2ccccn2)nc1.c1ccc2cc3nc4c5cccnc5c5ncccc5c4nc3cc2c1 | SK-MEL-28 | cytotoxicity, sulforhodamine B |  | red light, normoxia | CC50 | 0.153 µM
COc1ccc(-c2cc(-c3ccc(F)cc3)nn2-c2ccc([N+](=O)[O-])cc2[N+](=O)[O-])cc1 | Neuro2a | MTT |  | 48 h | CC50 | ~1 µM
CC[C@H](C)[C@H]1NC(=O)[C@@H](Cc2ccccc2)N(C)C(=O)[C@H](C)N(C)C(=O)[C@H](CC(C)C)NC(=O)[C@H](Cc2ccccc2)N(C)C(=O)[C@H](C)N(C)C(=O)[C@@H]([C@@H](C)CC)NC1=O | HCT-116 | CellTiter-Glo ATP |  | 72 h, 0.1% DMSO | CC50 | 0.034 ± 0.005 µM

For quick reference, copied from above:
SMILES | tested on | test | test system | setting | endpoint | result
C[C@H](NC(=O)[C@@H](O)c1cc(F)cc(F)c1)C(=O)N[C@@H]1C(=O)N(C)c2ccccc2-c2ccccc21 | MEF | cell viability, CellTiter-Glo |  | 48 h, uninfected | CC50 | 70.2 µM
O=C(N[C@@H](Cc1ccccc1)C(=O)N[C@@H](C[C@@H]1CCNC1=O)C(O)S(=O)(=O)O)OCc1ccccc1 (stereo partly drawn) | HCT-8 |  |  | 5 (unit not given) | CC50 | > 250 µM
Nc1nc(Nc2ccc(Cl)c(Cl)c2)nn1S(=O)(=O)c1ccc2ccccc2c1 | Vero 76 |  |  |  | CC50 | 4.1 µM and 5.9 µM
